Experimental data of several laboratories.
A part holds a random share of what one study measured.

Block 1 — method: RNA Bind-n-Seq; form: RNA; medium: in vitro; tested at: 365 nM; reference: no-protein control; direction: higher = stronger binding; quantity: RBNS enrichment (R)
Target: RNA binding protein fox-1 homolog 2, RRM domain, GST-SBP tag (RBFOX2, Homo sapiens, UniProt O43251-10, residues 100-194)
Notes: natural RNA segment, single round, ends assumed
Shared flanks, not repeated: GGGAGUUCUACAGUCCGACGAUC … UGGAAUUCUCGGGUGCCAA
Target sequence (chain): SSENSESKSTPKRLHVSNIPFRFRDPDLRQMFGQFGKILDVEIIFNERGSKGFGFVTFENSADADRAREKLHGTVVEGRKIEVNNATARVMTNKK
AACAUUUUGGAUUUUCAUAUGUGUCUGAUAAGUGGUUGUAUAGUCGUUUGGCGCUGUUGUAUGGUGUGAUUGUCAGUGUAUGGUGUCACUUCCUAUAGCCAGCAGCAGAC: 0.245
UGUCCUCCCAAGAGAAGCACUUCAGUGGUGCAGUGGUAAGAGCCCACAGCAUUGAGGCCAGCCUGACUGAAGGAUGAUGUGAGGCUGUUUGUCACUUCUGUUCUUUUCCC: 0.338
UUUUGAGCUAAAAAUAAAAGUUAAUUUCAUACUAUAUAGAUUUUCUUUUUUAUCUUGUAUGUCCCCCUCUUAGUCUGCUGAGCUUUUGUUUUGCUUGGUUUUCAGUGAUA: 0.601
AGGCAAAUGGAAUUGCUUUUCCAUAACAUCCAAAUUGUAAUGUGGUUGCUGCUGAAGGAGGAGGCAGCAGCGAGGUCCUGCGGUACCCAUGGGGUGAUGCUACUUCUGCA: 1.15
AAGAGUAGGGACGCCGUUCCAGCCCCCCUUCCUAUCGUGUCCUUGGGUUCGGGUCACUGCGGCGACGACUUGCUCAGACUGUCCCGGCGGCCGGAGUGACUUUCUCGCAC: 0.251
UGGAAAUAUGUUCUUUCUAGUUGUGGGUACCCUGAUCUAGGUGGUUUGUAAUUGUGCAUUACUGACUGCAUAUGUUUGUGUAUGUGUAAAUGUGGGCUCCCUGUUAAGUG: 0.986
AGCCAGUCCCGUGGCCACUUCAGCCCUUUUCCAUCCUCUUUUUAUGACGGUGUGUGUGAGAGAGUGGUGGGGCGGGGUGAGAAAUUCUCUGUCCUUUUGUCUACACAUGC: 0.315
UAUUUAUUUUUAAAAAGAAAAGGUGGAGGAACCAAUAUCAACUUGUACAUAAUGAAAAUAUGCGUGUACAUAUAUUUUCCUUCUUGACACUACUUGAUCAUUAUAUCAAG: 0.474
CUAAAUGGGUGUAGUUGUAUAUGCACGAUGUAAUUUAAUGCUAAAGAGUACUUACAGCUUGAGGGAAAAGCAUAAAGUUUUAGUUAAAUAGCCUUCAUACUGUGGAUUUU: 2.1
UGCUGGGCAUGCUUCGUAGAGGGCCAGGAGCAGCAGGUCAUGUGCACAUGCCGUUGCAGCACAAGCUUAUGCUUCCCGUAGCCGUGGCUUUUCAUUCUGCACAGUCCCAG: 0.563
CAAAAAAAACAACAAAAAAAGGAAAAAUAACGCUUCAAUGCUUUUAAAACAGCAAGAUAAUAGUUCUUUGAUACUUUGAGAGGCGCUUUGAUGACCCUCAUCCAAGUCUA: 0.465
CAGAAGGUCAUCAGAUUGUGAGACUGCUUCCUUGAAACAUUUUUGUGCUAUUGUUUUAAAAAAAUAAUUAAAAAACAGUUGGCGUUAAUAAAAAUGUCAAUGUGAAACUG: 0.372

Block 2 — method: protein binding microarray; form: double-stranded DNA, one strand shown; medium: in vitro; tested at: not given; reference: not given; direction: higher = stronger binding; quantity: E-score
Target: Histone acetyltransferase KAT6A, winged helix 1, GST fusion (KAT6A, Homo sapiens, UniProt Q92794, residues 1-85)
Notes: 8-mer, flanks averaged, mean of 2 arrays, mostly near background
Target sequence (chain): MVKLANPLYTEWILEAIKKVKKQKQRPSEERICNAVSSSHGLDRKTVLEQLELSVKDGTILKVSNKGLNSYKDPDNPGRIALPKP
TCTTTAAA: -0.136
CGCATTGC: 0.132
AGACAGGA: -0.306
GGCTGTGA: -0.0131
AACACCAT: -0.135
ACACTTAA: -0.0944
AAGTTGCC: 0.0166
ATATTGGG: -0.0665
ATGTTCTC: -0.131
CCGTTGCG: 0.359
AACGAGTG: -0.287
GTTAGGAA: -0.126
GGAGAATA: -0.101
AAGAACCG: -0.047
ATGCGCAG: 0.273
TAACTCTA: -0.153
GTTCATGA: -0.198
CAGGAGGG: -0.244
GGGTACAC: 0.215
CAAGTCGG: 0.0256
AAAGATGT: -0.101
CCCATTAG: -0.222
CCGTGACA: 0.279
CAACTCTC: -0.198
ATGAACCG: 0.102

Block 3 — method: universal PBM; form: double-stranded DNA, one strand shown; medium: in vitro; tested at: not given; direction: higher = stronger binding; quantity: E-score
Target: Sal-like protein 4, full length isoform B (SALL4, Homo sapiens, UniProt Q9UJQ4-2, residues 1-616)
Notes: 8-mer, flanks averaged, mean of replicates
Target sequence (chain): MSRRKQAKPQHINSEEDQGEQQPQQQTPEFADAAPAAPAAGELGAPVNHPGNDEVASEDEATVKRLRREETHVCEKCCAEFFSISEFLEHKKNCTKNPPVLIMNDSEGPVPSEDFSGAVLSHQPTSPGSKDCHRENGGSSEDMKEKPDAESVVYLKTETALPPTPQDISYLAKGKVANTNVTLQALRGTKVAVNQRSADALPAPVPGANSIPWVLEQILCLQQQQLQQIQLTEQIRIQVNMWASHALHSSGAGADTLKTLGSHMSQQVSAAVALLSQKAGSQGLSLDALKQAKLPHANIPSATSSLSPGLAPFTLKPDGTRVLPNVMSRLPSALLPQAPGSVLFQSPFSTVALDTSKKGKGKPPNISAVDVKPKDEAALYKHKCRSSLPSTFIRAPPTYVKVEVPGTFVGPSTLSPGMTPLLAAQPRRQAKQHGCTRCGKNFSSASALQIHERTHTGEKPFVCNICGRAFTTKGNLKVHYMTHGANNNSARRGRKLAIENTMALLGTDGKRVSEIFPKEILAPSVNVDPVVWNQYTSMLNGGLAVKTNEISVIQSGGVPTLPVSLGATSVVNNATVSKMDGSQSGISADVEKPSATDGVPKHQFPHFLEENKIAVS
CCAGCGGG: -0.257
ACAAAGAA: 0.23
AGGCGAAT: 0.0289
GTACCGTA: -0.064
CGGTCCAG: -0.326
TCTGCCAA: 0.00925
CATTATAG: 0.188
GAGATACA: 0.256
AGGGATAA: 0.129
CCCGCCAA: -0.0804
CGGAAGAA: -0.0712
CTGACAAC: -0.139
GCATTCCC: -0.129
AGAAAGAC: -0.0708
ACCGCGGT: -0.223
AGAGCTGG: -0.245
CGCGTTAC: -0.0658
AAAACAGT: 0.19
GTCATCAC: 0.0317
TATGTGGA: 0.192
GTCCGCAC: -0.217
CCTGGTTA: 0.0119

Block 4 — method: RNA Bind-n-Seq; form: RNA; medium: in vitro; tested at: 1 µM; notes: whole 134-nt RNA, ends assumed; together with: 150 mM KCl; reference: input library; direction: higher = stronger binding; quantity: log2 enrichment
Target: Ras GTPase-activating protein-binding protein 1, C-terminal RGG region (G3BP1, Homo sapiens, UniProt Q13283)
UniProt Q13283, sequence (whole entry, looked up): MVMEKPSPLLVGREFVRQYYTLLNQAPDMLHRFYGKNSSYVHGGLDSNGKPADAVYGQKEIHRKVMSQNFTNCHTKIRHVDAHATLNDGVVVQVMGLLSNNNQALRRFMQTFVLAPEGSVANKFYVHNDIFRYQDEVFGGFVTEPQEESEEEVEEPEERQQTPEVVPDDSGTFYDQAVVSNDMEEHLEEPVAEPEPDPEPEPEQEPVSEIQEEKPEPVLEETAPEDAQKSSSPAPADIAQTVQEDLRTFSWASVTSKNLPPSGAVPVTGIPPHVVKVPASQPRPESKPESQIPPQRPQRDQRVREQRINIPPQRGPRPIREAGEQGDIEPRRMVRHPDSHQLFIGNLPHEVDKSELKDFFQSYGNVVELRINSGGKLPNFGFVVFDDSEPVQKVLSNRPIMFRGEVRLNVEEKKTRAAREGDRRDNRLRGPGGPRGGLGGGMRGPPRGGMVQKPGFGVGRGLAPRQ
Shared flanks, not repeated: GGGAGUUCUACAGUCCGACGAUC … UGGAAUUCUCGGGUGUCAAGG
GUCCUGUGCUACACAUCGUAUGUACCGAAUCGGGGUUUUUGGGGAAAAAGGGGUGGGGAAAGUAUUAUGUUACGCCGUUCGGAUCUGCAC: 2
GUCCUGUGCUACACAUCGUAUGUACCGAAUCGGUUUUUUUGGAAAAAGGAAAAAAAGGAAAGUAUUAUGUUACGCCGUUCGGAUCUGCAC: -1.65
AGAGAAUAAGAAUUCAGCUGACAGGAGGCCUCUAUCCUGUCCCUCCACCCCACCCUCCACCUCAAUCCCCUCCCAUCUUCCCCAGACCUA: 0.239
CCUCAAGUCCUGUGCUACACAUCGUAUGUACCGAAUCGGCGGGGCGGGCGGGGAAAGUAUUAUGUUACGCCGUUCGGAUCUGCACUUCCA: 0.727
UGGGAGGUGGAUUUUGAUUAUUUUUUUAGCUCAUUUCCAGGGGUGGGAAUUUUUUUUUAAUAUGUGUCAUGAAUAAAGUUGUUUUUGAAA: 3.87
ACCAUGCAGGUGGGCAUCUUUGGGAAGUGGGGCAAGGGGGGGAUAGGGAGGGGGGUAACACUUUGGGAACAGAUGGUCCCAGGUCGUUUC: 2.27
GUCCUGUGCUACACAUCGUAUGUACCGAAUCGGGAAAAAAAGGGUUUGGGUUUUUGGGAAAGUAUUAUGUUACGCCGUUCGGAUCUGCAC: 0.0154
UGUUGAUGCUGUAAUUGCUGAACUUAAAAAGCAGUCUAAACCUGUGACCACCCCUGAAGAAAUUGCACAGGUAAGGACUUAACAUGUUAC: 0.303
GUCCUGUGCUACACAUCGUAUGUACCGAAUCGGGGUUUGGGGUGGGGAAAAAAAGGGGAAAGUAUUAUGUUACGCCGUUCGGAUCUGCAC: 1.37
GUCCUGUGCUACACAUCGUAUGUACCGAAUCGGGUUUUUUUGGGUUUUUGGGAAAGGGAAAGUAUUAUGUUACGCCGUUCGGAUCUGCAC: -0.326

For quick reference, copied from above (block 1):
CAGAAGGUCAUCAGAUUGUGAGACUGCUUCCUUGAAACAUUUUUGUGCUAUUGUUUUAAAAAAAUAAUUAAAAAACAGUUGGCGUUAAUAAAAAUGUCAAUGUGAAACUG: 0.372
AGCCAGUCCCGUGGCCACUUCAGCCCUUUUCCAUCCUCUUUUUAUGACGGUGUGUGUGAGAGAGUGGUGGGGCGGGGUGAGAAAUUCUCUGUCCUUUUGUCUACACAUGC: 0.315
AACAUUUUGGAUUUUCAUAUGUGUCUGAUAAGUGGUUGUAUAGUCGUUUGGCGCUGUUGUAUGGUGUGAUUGUCAGUGUAUGGUGUCACUUCCUAUAGCCAGCAGCAGAC: 0.245
AAGAGUAGGGACGCCGUUCCAGCCCCCCUUCCUAUCGUGUCCUUGGGUUCGGGUCACUGCGGCGACGACUUGCUCAGACUGUCCCGGCGGCCGGAGUGACUUUCUCGCAC: 0.251
